Measured values from different studies.
A part holds a random share of what one study measured.
Chain of UniProt P53778 (whole entry, looked up): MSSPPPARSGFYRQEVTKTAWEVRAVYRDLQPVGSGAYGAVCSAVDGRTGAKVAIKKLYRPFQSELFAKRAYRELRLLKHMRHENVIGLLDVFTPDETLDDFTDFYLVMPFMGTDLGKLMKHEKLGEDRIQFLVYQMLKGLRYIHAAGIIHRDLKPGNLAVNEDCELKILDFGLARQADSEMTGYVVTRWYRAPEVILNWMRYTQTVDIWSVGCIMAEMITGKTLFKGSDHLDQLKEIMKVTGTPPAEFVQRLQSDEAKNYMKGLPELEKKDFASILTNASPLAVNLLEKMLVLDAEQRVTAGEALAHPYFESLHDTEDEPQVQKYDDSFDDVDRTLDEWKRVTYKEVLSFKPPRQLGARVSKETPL
Chain of UniProt P35590 (whole entry, looked up): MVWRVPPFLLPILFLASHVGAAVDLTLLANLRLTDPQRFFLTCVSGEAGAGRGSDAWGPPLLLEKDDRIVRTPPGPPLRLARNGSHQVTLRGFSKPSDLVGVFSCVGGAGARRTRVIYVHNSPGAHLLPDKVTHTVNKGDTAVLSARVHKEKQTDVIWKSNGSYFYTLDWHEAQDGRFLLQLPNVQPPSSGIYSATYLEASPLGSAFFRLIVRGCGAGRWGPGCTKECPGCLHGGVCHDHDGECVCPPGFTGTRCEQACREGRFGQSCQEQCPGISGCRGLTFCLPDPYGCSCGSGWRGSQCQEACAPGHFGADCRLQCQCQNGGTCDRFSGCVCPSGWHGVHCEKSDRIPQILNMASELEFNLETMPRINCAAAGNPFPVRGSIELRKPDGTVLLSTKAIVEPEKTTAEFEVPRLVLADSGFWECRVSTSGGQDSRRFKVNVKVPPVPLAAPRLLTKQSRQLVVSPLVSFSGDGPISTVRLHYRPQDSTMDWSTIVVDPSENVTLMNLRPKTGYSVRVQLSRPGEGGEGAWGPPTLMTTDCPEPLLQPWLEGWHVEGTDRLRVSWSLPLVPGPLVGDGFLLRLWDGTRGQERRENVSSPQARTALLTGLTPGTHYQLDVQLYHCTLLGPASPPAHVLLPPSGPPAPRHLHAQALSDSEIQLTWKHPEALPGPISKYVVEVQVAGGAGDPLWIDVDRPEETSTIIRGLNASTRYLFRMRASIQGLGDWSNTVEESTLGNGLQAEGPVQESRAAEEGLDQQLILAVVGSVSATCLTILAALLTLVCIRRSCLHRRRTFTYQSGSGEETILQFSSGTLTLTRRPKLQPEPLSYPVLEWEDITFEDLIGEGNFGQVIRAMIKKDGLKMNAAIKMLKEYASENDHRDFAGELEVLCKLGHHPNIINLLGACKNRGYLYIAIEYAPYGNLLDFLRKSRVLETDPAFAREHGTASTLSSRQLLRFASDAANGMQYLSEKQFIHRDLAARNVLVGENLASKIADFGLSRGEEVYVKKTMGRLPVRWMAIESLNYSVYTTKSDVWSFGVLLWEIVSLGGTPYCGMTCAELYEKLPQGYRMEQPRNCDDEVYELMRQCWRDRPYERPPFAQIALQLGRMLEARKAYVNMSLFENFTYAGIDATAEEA
Chain of UniProt P51617 (whole entry, looked up): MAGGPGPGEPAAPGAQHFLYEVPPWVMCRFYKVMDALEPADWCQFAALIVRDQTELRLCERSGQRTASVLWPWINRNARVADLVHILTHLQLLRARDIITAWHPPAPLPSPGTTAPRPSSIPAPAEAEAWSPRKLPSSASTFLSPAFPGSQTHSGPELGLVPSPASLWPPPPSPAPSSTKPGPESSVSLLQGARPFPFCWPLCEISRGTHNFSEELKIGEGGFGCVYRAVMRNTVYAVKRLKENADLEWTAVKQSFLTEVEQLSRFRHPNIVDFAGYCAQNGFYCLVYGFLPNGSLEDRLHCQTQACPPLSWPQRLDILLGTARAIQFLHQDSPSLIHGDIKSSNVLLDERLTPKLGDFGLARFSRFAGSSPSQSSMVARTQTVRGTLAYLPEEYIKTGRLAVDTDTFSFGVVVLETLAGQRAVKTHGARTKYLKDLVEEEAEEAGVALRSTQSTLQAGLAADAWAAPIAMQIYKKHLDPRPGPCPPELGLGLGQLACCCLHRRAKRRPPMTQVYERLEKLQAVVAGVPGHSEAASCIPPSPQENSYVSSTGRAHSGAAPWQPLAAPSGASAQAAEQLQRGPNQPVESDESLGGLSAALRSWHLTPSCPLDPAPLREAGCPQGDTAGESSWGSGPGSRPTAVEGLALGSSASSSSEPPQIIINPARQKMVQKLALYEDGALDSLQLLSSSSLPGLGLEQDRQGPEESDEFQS
Chain of UniProt Q8TD19 (whole entry, looked up): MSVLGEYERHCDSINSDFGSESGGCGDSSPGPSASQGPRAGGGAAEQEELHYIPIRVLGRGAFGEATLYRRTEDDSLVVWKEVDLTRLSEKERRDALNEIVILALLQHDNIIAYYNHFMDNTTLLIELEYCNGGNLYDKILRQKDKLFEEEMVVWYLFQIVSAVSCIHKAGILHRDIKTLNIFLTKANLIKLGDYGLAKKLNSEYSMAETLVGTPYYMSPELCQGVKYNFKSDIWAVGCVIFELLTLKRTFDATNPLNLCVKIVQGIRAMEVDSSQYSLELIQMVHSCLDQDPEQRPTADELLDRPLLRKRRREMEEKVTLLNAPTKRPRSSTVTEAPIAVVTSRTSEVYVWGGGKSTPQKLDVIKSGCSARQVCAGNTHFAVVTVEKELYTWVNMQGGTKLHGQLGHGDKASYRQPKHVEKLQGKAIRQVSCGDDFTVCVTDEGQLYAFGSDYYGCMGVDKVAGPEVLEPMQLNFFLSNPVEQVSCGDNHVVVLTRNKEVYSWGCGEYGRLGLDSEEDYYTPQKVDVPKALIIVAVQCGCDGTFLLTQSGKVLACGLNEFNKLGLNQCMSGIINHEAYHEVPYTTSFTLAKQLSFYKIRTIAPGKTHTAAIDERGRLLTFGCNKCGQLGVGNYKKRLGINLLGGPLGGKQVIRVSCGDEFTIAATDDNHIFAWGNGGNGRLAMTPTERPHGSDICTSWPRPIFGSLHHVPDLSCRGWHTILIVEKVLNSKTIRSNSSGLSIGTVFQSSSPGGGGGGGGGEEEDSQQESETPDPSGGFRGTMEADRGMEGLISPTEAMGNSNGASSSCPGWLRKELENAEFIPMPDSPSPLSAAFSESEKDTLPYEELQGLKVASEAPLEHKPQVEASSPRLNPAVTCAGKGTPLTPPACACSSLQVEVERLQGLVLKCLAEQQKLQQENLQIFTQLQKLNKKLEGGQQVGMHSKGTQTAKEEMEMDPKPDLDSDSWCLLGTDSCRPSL
Chain of UniProt Q9P289 (whole entry, looked up): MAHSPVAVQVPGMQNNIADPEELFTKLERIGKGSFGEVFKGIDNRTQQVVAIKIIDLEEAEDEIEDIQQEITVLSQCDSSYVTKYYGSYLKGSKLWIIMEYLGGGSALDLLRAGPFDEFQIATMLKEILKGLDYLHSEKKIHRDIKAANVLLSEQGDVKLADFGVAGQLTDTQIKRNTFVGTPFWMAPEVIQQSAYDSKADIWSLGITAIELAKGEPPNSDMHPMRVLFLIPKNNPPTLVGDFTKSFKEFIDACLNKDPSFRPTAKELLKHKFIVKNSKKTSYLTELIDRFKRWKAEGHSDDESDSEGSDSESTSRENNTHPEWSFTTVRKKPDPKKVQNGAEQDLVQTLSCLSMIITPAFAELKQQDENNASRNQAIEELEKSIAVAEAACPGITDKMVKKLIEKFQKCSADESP

Series 1
Target: Protein C-ets-1 (ETS1, Homo sapiens, UniProt P14921, residues 1-441, K379A, full length assumed)
Chain of UniProt P14921 (whole entry, unmodified, looked up): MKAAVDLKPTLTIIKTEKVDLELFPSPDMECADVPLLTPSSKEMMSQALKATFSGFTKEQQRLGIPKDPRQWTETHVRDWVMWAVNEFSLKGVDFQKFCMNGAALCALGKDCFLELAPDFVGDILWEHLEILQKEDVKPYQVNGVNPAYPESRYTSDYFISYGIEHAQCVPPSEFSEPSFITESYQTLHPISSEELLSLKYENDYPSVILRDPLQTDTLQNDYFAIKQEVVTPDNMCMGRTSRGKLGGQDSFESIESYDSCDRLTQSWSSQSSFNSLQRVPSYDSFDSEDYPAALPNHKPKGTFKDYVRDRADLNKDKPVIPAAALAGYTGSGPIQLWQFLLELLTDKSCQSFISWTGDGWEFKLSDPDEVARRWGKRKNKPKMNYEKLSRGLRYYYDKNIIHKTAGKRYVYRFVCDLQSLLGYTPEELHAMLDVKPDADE
Method: protein-binding microarray
Molecule type: double-stranded DNA, one strand shown
Sample: in vitro
Tested at: not given
Notes: k-mer, scored over probes, only values ≥0.25
Direction: higher = stronger binding
Measurement: E-score
Oligonucleotide = ATAGTTTG; value = 0.308
Oligonucleotide = GACACTAC; value = 0.293
Oligonucleotide = GCACCGAC; value = 0.314
Oligonucleotide = CCGGTGCC; value = 0.316
Oligonucleotide = CGCCGGAA; value = 0.376
Oligonucleotide = GTATTTGA; value = 0.271
Oligonucleotide = ATATCCCG; value = 0.275
Oligonucleotide = GTCGGTCA; value = 0.27

Series 2
Target: Centromere-binding protein 1, full length, N-terminal tag (CBF1, Saccharomyces cerevisiae, UniProt P17106, residues 1-351)
Chain of UniProt P17106 (whole entry, looked up): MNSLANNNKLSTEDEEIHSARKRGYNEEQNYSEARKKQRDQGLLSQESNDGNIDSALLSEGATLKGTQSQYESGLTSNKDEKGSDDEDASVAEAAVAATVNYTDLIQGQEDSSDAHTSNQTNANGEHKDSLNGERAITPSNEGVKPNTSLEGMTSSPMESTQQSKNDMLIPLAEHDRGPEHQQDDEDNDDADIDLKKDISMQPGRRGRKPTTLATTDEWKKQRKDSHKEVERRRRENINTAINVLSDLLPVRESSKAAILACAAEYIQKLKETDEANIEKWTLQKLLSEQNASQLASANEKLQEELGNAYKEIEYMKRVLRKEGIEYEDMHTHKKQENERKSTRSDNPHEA
Method: protein-binding microarray
Molecule type: double-stranded DNA, one strand shown
Sample: in vitro
Tested at: 0.8 µM
Notes: whole 60-bp probe, no competitor
Direction: higher = stronger binding
Measurement: fluorescence intensity
Constant ends, left off below: … GTCTTGATTCGCTTGACGCTGCTG
Oligonucleotide = CTATGCTCATCTCATCACCAGTAAAAAAATGTGTTC; value = 541 a.u.
Oligonucleotide = GAAAAAGCGCAAGGCCGCGTGGACCACCAGGACTAG; value = 496 a.u.
Oligonucleotide = CTAGATTTAAGGTGAGCCGTCAGGGGCTTTTAATTC; value = 517 a.u.
Oligonucleotide = CTATACCAAAACAACGTGACAACGAAATTCCCCTTC; value = 3050 a.u.
Oligonucleotide = CTACCTAAAAATTCTCACGTTTTTCTGGCCAGATTC; value = 641 a.u.
Oligonucleotide = CTACTAGATTGCAGTCACCTTTTCAATTAATCATTC; value = 569 a.u.
Oligonucleotide = GAAATAGCTTCCGTGCACGTTCCAGTCTTCCCTTAG; value = 627 a.u.
Oligonucleotide = CTATTCGTCCCGTACCAACCACGTGTTTTCCACTTC; value = 7140 a.u.

Series 3
Target: RAC-alpha serine/threonine-protein kinase (AKT1, Homo sapiens, UniProt P31749)
Chain of UniProt P31749 (whole entry, looked up): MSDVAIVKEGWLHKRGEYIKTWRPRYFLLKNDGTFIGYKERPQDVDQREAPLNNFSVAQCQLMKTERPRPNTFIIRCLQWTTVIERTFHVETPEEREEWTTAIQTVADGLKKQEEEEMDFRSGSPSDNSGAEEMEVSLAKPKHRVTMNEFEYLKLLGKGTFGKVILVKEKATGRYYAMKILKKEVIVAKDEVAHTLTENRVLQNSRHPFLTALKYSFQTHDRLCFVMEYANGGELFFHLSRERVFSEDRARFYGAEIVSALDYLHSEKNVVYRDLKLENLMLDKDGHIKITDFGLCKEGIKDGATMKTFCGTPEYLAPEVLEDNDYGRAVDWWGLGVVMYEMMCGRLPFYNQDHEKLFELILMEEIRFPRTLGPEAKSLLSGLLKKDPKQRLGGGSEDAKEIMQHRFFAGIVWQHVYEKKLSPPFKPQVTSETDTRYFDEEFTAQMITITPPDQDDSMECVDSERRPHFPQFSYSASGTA
Observed: enzyme activity
Mode: inhibitor
Tested at: 0.5 µM
Reference: control
Measurement: remaining activity
SMILES = CC(C)[C@H](CO)Nc1nc(Nc2cc(N)cc(Cl)c2)c2ncn(C(C)C)c2n1; value = 117%
SMILES = CNC(=O)c1cc(Oc2ccc(NC(=O)Nc3ccc(Cl)c(C(F)(F)F)c3)cc2)ccn1; value = 96.2%
SMILES = O=C(CCCc1ccc(-c2ccccc2F)cc1)Nc1ccc(O)cc1; value = 97.8%
SMILES = NCCNc1ncc(C(N)=O)c(Nc2cccc(C(F)(F)F)c2)n1; value = 96.4%
SMILES = Cn1sc(=O)n(Cc2ccccc2)c1=O; value = 101%
SMILES = Cc1nc(-c2ccccc2)c(-c2ccncc2)o1; value = 102%
SMILES = CN(C)c1ccc(C=C2C(=O)Nc3ccccc32)cc1; value = 101%
SMILES = COc1ccc(C(=O)Nc2sc3c(c2C(N)=O)CCCC3)cc1OC; value = 99.7%
SMILES = Cc1cccc(-c2[nH]c(C(C)(C)C)nc2-c2ccc3c(c2)OCO3)n1; value = 94.6%
SMILES = O=C1NC(=O)C(c2cn(CCCO)c3ncccc23)=C1c1cnccn1; value = 98.6%
SMILES = C#Cc1cccc(Nc2ncnc3cc(OCCOC)c(OCCOC)cc23)c1; value = 93.7%
SMILES = Nc1[nH]nc2nc3ccccc3nc12; value = 106%
SMILES = Nc1ncnc2n[nH]c(Nc3ccc(F)cc3)c12; value = 93.3%
SMILES = O=c1c2ccccc2[nH]c(=S)n1CCN1CCC(=C(c2ccc(F)cc2)c2ccc(F)cc2)CC1; value = 98.3%
SMILES = Cn1c2ccccc2c2c3c(c4c5ccccc5n(CCC#N)c4c21)CNC3=O; value = 108%

Series 4
Compound: CCC(=N\O)/C(C)=C/c1ccc(F)cc1
Observed: cell-free assay
Method: competition with immobilised ligand
Tested at: 1 µM
Measurement: remaining binding
target = PDPK1 (Homo sapiens, UniProt O15530); value = 87%
target = Tyrosine-protein kinase ABL1, phosphorylated (ABL1, Homo sapiens, UniProt P00519, F317L); value = 81%
target = TSSK3 (Homo sapiens, UniProt Q96PN8); value = 99%
target = Tyrosine-protein kinase JAK1, JH1 (JAK1, Homo sapiens, UniProt P23458); value = 96%
target = EPHA3 (Homo sapiens, UniProt P29320); value = 100%
target = CSK (Homo sapiens, UniProt P41240); value = 100%
target = MAPK12 (Homo sapiens, UniProt P53778); value = 100%
target = IRAK1 (Homo sapiens, UniProt P51617); value = 79%
target = STK26 (Homo sapiens, UniProt Q9P289); value = 81%
target = COQ8B (Homo sapiens, UniProt Q96D53); value = 84%
target = TIE1 (Homo sapiens, UniProt P35590); value = 63%
target = TBK1 (Homo sapiens, UniProt Q9UHD2); value = 75%
target = PRKD2 (Homo sapiens, UniProt Q9BZL6); value = 99%
target = LCK (Homo sapiens, UniProt P06239); value = 82%
target = NEK9 (Homo sapiens, UniProt Q8TD19); value = 79%
target = MAP3K10 (Homo sapiens, UniProt Q02779); value = 100%
target = ACVR1 (Homo sapiens, UniProt Q04771); value = 80%

For quick reference, copied from above (series 4):
target = NEK9 (Homo sapiens, UniProt Q8TD19); value = 79%
target = PRKD2 (Homo sapiens, UniProt Q9BZL6); value = 99%
target = STK26 (Homo sapiens, UniProt Q9P289); value = 81%
target = EPHA3 (Homo sapiens, UniProt P29320); value = 100%
